# Results from different studies.
# Compare with care: the assays were run in different laboratories. Several values in a cell are separate wells, animals, samples, runs or records. Numbers after ± are the reported error.
SMILES,target or system,assay,system,setting,scale,endpoint,value
CC(C)C[C@@H](NC(=O)[C@@H](CCCNC(=N)N)NC(=O)[C@@H](Cc1c[nH]cn1)NC(=O)[C@@H](Cc1c[nH]c2ccccc12)NC(=O)[C@@H](Cc1c[nH]cn1)NC(=O)[C@@H](Cc1ccccc1)NC(=O)[C@H](NC(=O)[C@@H](Cc1ccc(O)cc1)NC(=O)CNC(=O)CNC(=O)CCOCCOCCOCCNC(=O)CN1CCN(CC(=O)O)CCN(CC(=O)O)CC1)[C@H](C)O)C(=O)N[C@H](CC(N)=O)C(=O)N1CCC[C@@H]1C(=O)O [gallium-68 labelled],,,"C57BL/6 mice, male","intravenous, 1.85 MBq, 30 min",reference: tumour over liver,tissue ratio,1.62 ± 0.42
CS(=O)(=O)c1cc(Cl)cc(-c2cc(Cl)c(Cl)cc2Cl)c1Cl,,ultrafiltration,cow milk whey,20 nM nominal in whole milk,,dose fraction in permeate,39.3%
O=C(c1cc(Cc2n[nH]c(=O)c3ccccc23)ccc1F)N1CC(CNC2CC2)C1,,,"Wistar Han rat, female, blood","oral, 30 mg/kg daily, 4 weeks",,haematocrit,41.6 ± 3.2%
Cc1c(-c2ccc(N3CCc4cccc(C(=O)Nc5nc6ccccc6s5)c4C3)nc2C(=O)O)cnn1CC12CC3CC(CC(C3)C1)C2,,,"anesthetized cynomolgus monkeys, plasma","intravenous bolus, 5.0 mg/kg, 120 min",,plasma concentration,1.7 µg/mL and 4.7 µg/mL
O=C1NC2(CC2)COc2ncc(F)cc2[C@H]2COCCN2c2ccn3ncc1c3n2,,,"Sprague-Dawley rat, female, plasma","oral, 10 mg/kg/day, end of treatment, 4-week repeated-dose toxicity",,prothrombin time,8.3 ± 0.2 s
CC(C)[C@@H]1NC(=O)CNC(=O)[C@H](CC(N)=O)NC(=O)[C@H](CCCNC(=N)N)NC(=O)[C@H](Cc2ccc(O)cc2)NC(=O)[C@H](C(C)C)NC(=O)[C@@H](NC(=O)[C@@H](NC(=O)[C@H](CC(N)=O)NC(=O)[C@H](Cc2c[nH]c3ccccc23)NC(=O)[C@H](C)NC(=O)[C@H](Cc2ccccc2)NC(=O)CNC(=O)[C@H](CCCCN)NC(=O)[C@H](Cc2ccccc2)NC(=O)[C@H](Cc2ccccc2)NC(=O)[C@H](CCCCN)NC(=O)OCC2c3ccccc3-c3ccccc32)C(C)C)CSSC[C@@H](C(=O)N[C@@H](Cc2c[nH]cn2)C(=O)N[C@@H](CCCNC(=N)N)C(=O)N[C@@H](CCCNC(=N)N)C(=O)N[C@@H](C)C(=O)N[C@@H](CC(N)=O)C(N)=O)NC(=O)[C@H](C(C)C)NC(=O)[C@H](CCCNC(=N)N)NC1=O,,,"ICR mice, blood","intraductal mammary, 5 mg/kg, day 5",,platelet distribution width,15.9 ± 0.35%
CC(C)[C@H]1NC(=O)[C@@H](C)NC(=O)[C@@H](C(C)C)NC(=O)[C@@H](Cc2ccccc2)NC(=O)[C@@H](C(C)C)NC(=O)[C@@H]([C@H](C)O)NC(=O)[C@@H](Cc2ccc(O)cc2)NC(=O)[C@@H](CCCNC(=N)N)NC(=O)[C@@H]2CCCC[C@H]2NC(=O)[C@@H](CO)NC(=O)[C@H](Cc2ccc(O)cc2)NC(=O)CSC[C@@H](C(=O)NCCOCCOCCOCCOCCOCCOCCC(N)=O)NC(=O)[C@@H](CO)NC(=O)[C@@H](C(C)C)NC(=O)[C@@H](Cc2ccc(O)cc2)NC1=O,,,simulated intestinal fluid,"pH 6.8, 37 °C, added: pancreatin",,stability time,≥ 12 h
CCN(Cc1ccccc1)C(=O)CCc1nc(CN2CCN(C(=O)Cc3ccc(OC)c(OC)c3)CC2)no1,,rotarod test,"mouse, CCI neuropathic pain model",20 mg/kg,,time to first slip,1 ± 0.09 min
COc1cccc2c1C(=O)c1c(O)c3c(c(O)c1C2=O)CC(O)(C(=O)CO)CC3OC1CC(NC(=O)OC2C=CCCC(C)(C(=O)NCC(=O)O)CC2)C(O)C(C)O1 (stereo not drawn),,,"female C57BL/6 mouse, biopolymer injection site tissue","intravenous, 43 mg/kg doxorubicin equivalents, 19 day",,concentration,4.17 ng/g
CCOC(=O)CNC(=O)CN1CCN(CC(=O)NCC(=O)OCC)CCN(CC(=O)NCC(=O)OCC)CCN(CC(=O)NCC(=O)OCC)CC1.[Eu+3],,,isolated perfused rat heart,"concentration not given, after buffer washout",,heart rate,255 bpm
CCCCCCCCCCCCCCCC(=O)N[C@@H](CCC(=O)NCCCC[C@H](NC(=O)[C@H](CC(=O)O)NC(=O)[C@H](CO)NC(=O)[C@@H](NC(=O)[C@H](Cc1ccccc1)NC(=O)[C@@H](NC(=O)CNC(=O)[C@H](CCC(N)=O)NC(=O)[C@H](C)NC(=O)[C@@H](Cc1ccc(O)cc1)NC(C)=O)[C@@H](C)O)[C@@H](C)O)C(=O)N[C@@H](CO)C(=O)N[C@@H](CCCCN)C(=O)N[C@@H](Cc1ccc(O)cc1)C(=O)N[C@@H](CC(C)C)C(=O)N[C@@H](CC(=O)O)C(=O)N[C@@H](CCC(=O)O)C(=O)N[C@@H](CCCNC(=N)N)C(=O)N[C@@H](C)C(=O)N[C@@H](C)C(=O)N[C@@H](CCC(N)=O)C(=O)N[C@@H](CC(=O)O)C(=O)N[C@@H](Cc1ccccc1)C(=O)N[C@H](C(=O)N[C@@H](CCC(N)=O)C(=O)N[C@@H](Cc1c[nH]c2ccccc12)C(=O)N[C@@H](CC(C)C)C(=O)N[C@@H](CC(C)C)C(=O)N[C@@H](CCC(=O)O)C(=O)NCC(=O)NCC(=O)N1CCC[C@H]1C(=O)N[C@@H](CO)C(=O)N[C@@H](CO)C(=O)NCC(=O)N[C@@H](C)C(=O)N1CCC[C@H]1C(=O)N1CCC[C@H]1C(=O)N1CCC[C@H]1C(=O)N[C@@H](CO)C(N)=O)C(C)C)C(=O)O,,,"male cynomolgus monkey, plasma","subcutaneous, 0.0161 mg/kg",,AUC(0-inf),2160 ng·h/mL
Cc1ccc(N2CCC(N(C)C)CC2)cc1C(=O)N[C@H](C)c1cc(-c2cnn(C)c2)nc2ccccc12,Vero E6,,,125 µM,,viability,0.685% and 0.856%
N=C(N)NCCC[C@H](NC(=O)[C@H](CCCNC(=N)N)NC(=O)[C@H](CCCNC(=N)N)NC(=O)[C@H](CCC(N)=O)NC(=O)[C@H](CCCNC(=N)N)NC(=O)[C@H](CCCNC(=N)N)NC(=O)[C@H](CCCCN)NC(=O)[C@H](CCCCN)NC(=O)[C@H](CCCNC(=N)N)NC(=O)CNC(=O)[C@H](Cc1ccc(O)cc1)NC(=O)[C@H](Cc1ccccc1)NC(=O)[C@H](Cc1ccccc1)NC(=O)[C@H](Cc1ccccc1)NC(=O)OCC1c2ccccc2-c2ccccc21)C(=O)O,,,C57BL/6 mice,"intraperitoneal, 10 mg/kg, 24 h",direction not given,health score,5
Cc1ccc(OCCN(C)C)cc1C(=O)N[C@H](C)c1cc(-c2scnc2C)nc2ccccc12,Vero E6,,,250 µM,,viability,0.2% and -0.4%
CCCCCCCCCCCCCCCC(=O)N[C@@H](CCC(=O)NCCOCCOCCC(=O)NCCOCCOCCC(=O)NCCCC[C@H](NC(=O)[C@H](CC(=O)O)NC(=O)[C@H](CC(C)C)NC(=O)[C@H](Cc1ccc(O)cc1)NC(=O)[C@H](CCCCN)NC(=O)[C@H](CO)NC(=O)[C@H](Cc1ccc(O)cc1)NC(=O)[C@H](CC(=O)O)NC(=O)[C@H](CO)NC(=O)[C@@H](NC(=O)[C@H](Cc1ccccc1)NC(=O)[C@@H](NC(=O)CNC(=O)[C@H](CCC(N)=O)NC(=O)[C@@H](CO)NC(=O)[C@@H](N)Cc1c[nH]cn1)[C@@H](C)O)[C@@H](C)O)C(=O)N[C@@H](CCCNC(=N)N)C(=O)N[C@@H](CCCNC(=N)N)C(=O)N[C@@H](C)C(=O)N[C@@H](CCC(N)=O)C(=O)N[C@@H](CC(=O)O)C(=O)N[C@@H](Cc1ccccc1)C(=O)N[C@H](C(=O)N[C@@H](CCC(N)=O)C(=O)N[C@@H](Cc1c[nH]c2ccccc12)C(=O)N[C@@H](CC(C)C)C(=O)N[C@@H](CC(C)C)C(=O)N[C@@H](CC(N)=O)C(=O)N[C@H](C(=O)NCC(=O)NCC(=O)N1CCC[C@H]1C(=O)N[C@@H](CO)C(=O)N[C@@H](CO)C(=O)NCC(=O)N[C@@H](C)C(=O)N1CCC[C@H]1C(=O)N1CCC[C@H]1C(=O)N1CCC[C@H]1C(=O)N[C@@H](CO)C(N)=O)[C@@H](C)O)C(C)C)C(=O)O,,,"rhesus monkey, plasma","subcutaneous, 5 µg/kg, single dose",,AUC(0-inf),11.8 ng·h/mL
